Experimental data collected from several papers.
Protocols differ between the studies behind these lines. Numbers after ± are the reported error. Converted amounts (≈) assume the structure as drawn.

Structure (SMILES)	tested on	assay	system	conditions	how to read	measurement	result
O=C(N/N=C/c1cc[n+](Cc2ccccc2)c2ccccc12)c1cccc(C(=O)N/N=C/c2cc[n+](Cc3ccccc3)c3ccccc23)c1	telomeric G4 DNA hybrid-2	FRET melting	–	1 µM, DNA 0.2 µM, with: duplex DNA competitor 10 µM	–	ΔTm	12.5 ± 0.3 °C
Cc1ncsc1-c1ccc(C(C)NC(=O)C2CC(O)CN2C(=O)C(NC(=O)CCCCCCCCCCN2CCCC(Nc3ncc(Cl)c(Nc4ccccc4S(=O)(=O)C(C)C)n3)C2)C(C)(C)C)cc1 (stereo not shown)	22Rv1	RNA-seq, item: RNF144B mRNA	–	concentration not given	relative to: DMSO	log2 fold change	-1.07
Nc1ncc(-c2cc(-c3cnn(CC(F)(F)F)c3)ncc2F)nc1C(=O)NC1CNCC(F)C1 (stereo not shown)	ERBB4	KINOMEscan	–	1 µM	relative to: DMSO control	remaining binding	100%
CC[n+]1cccc2cc(/C=N/NC(=O)c3ccc4ccc5ccc(C(=O)N/N=C/c6ccc7c(ccc[n+]7CC)c6)nc5c4n3)ccc21	telomeric G4 DNA hybrid-2	FRET melting	–	1 µM, DNA 0.2 µM, with: duplex DNA competitor 10 µM	–	ΔTm	34.6 ± 1 °C
CC(=O)[O-].O.[Cu+2].[O-]c1ccc(Br)cc1C=NCCN1CCOCC1	–	hydroxyl radical scavenging	–	40 µM	–	inhibition	8.28%
COC1CN([C@H]2CC[C@H]([C@@]3(C)Oc4c(Cl)cc(C(=O)NCc5c(SC)cc(C)[nH]c5=O)c(C)c4O3)CC2)C1	–	RNA-seq, item: MICU1 mouse homolog	mouse, HT-1376 xenograft, whole blood	dose not given	relative to: vehicle	log2 fold change	0.554
CN1CCCNC(=O)c2cccc(c2)C(=O)NCCCN(C)CCCNc2cccc3c2C(=O)c2cccc(c2C3=O)NCCC1	SAS	RNA-Seq, item: WDR7 mRNA	–	1 µM, 6 h	relative to: untreated cells	log2 fold change	-1.23
C=CC(=O)Nc1cccc(Cn2ncc3cnc(Nc4cnn(CCOC)c4)nc32)c1	MAPKAPK2 human	binding, KINOMEscan	–	100 nM	lower = stronger binding	percent of control	100%
CC(C)(C)c1cc(-c2ccc3cccnc3n2)nc(-c2ccc3cccnc3n2)c1.COc1ccncc1.[Cl-].[Cl-].[Ru+2].c1ccc2cc3nc4c5cccnc5c5ncccc5c4nc3cc2c1	B16-F10	resazurin	–	with: light 733 nm, 9 mW, 100 J/cm2	–	EC50	2410 nM
O=C(N/N=C/c1ccc(C[n+]2ccccc2)cc1)c1ccc2ccc(C(=O)N/N=C/c3ccc(C[n+]4ccccc4)cc3)nc2n1	telomeric G4 DNA hybrid-2	FRET melting	–	1 µM, DNA 0.2 µM, with: duplex DNA competitor 10 µM	–	ΔTm	15.7 ± 0.2 °C
C=C(NC(=O)c1csc(-c2nc3c(cc2O)-c2nc(cs2)C(=O)NC(C(C)O)C(=O)NC(=C(C)OC)c2nc(cs2)C(=O)NC2c4nc(cs4)C(=O)NC(COC(=O)c4c5c6c(cccc6n4O)COC(=O)C(OC4CC(C)(O)C(N(C)C)C(C)O4)C2OC5)c2nc-3cs2)n1)C(N)=O (stereo not shown)	Staphylococcus epidermidis	broth microdilution	methicillin-resistant isolates	–	–	MIC90	0.0312 µg/mL (≈ 0.0217 µM)
N=C(N)NCCC[C@@H]1NC(=O)[C@H](CCCNC(=N)N)NC(=O)[C@@H](CCCNC(=N)N)NC(=O)[C@@H](CCCNC(=N)N)NC(=O)[C@@H](C(c2ccccc2)c2ccccc2)NC(=O)[C@H](Cc2c[nH]c3ccccc23)NC(=O)[C@@H](C(c2ccccc2)c2ccccc2)NC1=O	Aspergillus fumigatus	fungal growth	–	–	–	MIC	> 64 µg/mL
C[n+]1cccc2cc(/C=N/NC(=O)c3cccc(C(=O)N/N=C/c4ccc5c(ccc[n+]5C)c4)n3)ccc21	telomeric G4 DNA hybrid-2	FRET melting	–	1 µM, DNA 0.2 µM	–	ΔTm	23.7 ± 0.9 °C
CNS(=O)(=O)Nc1nccc(Cc2c(C)c3ccc(Oc4ncccc4F)cc3oc2=O)c1F	SW48	cell viability	–	7 days	–	IC50	2.19 nM
O=C(N/N=C/c1ccc2c(ccc[n+]2Cc2ccccc2)c1)c1cc(C(=O)N/N=C/c2ccc3c(ccc[n+]3Cc3ccccc3)c2)ncn1	telomeric G4 DNA hybrid-2	FRET melting	–	1 µM, DNA 0.2 µM, with: duplex DNA competitor 10 µM	–	ΔTm	10 ± 5.4 °C
C=CC(=O)N1[C@@H](c2ccc3c(c2)OCO3)c2[nH]c3ccccc3c2C[C@H]1C(=O)N1CCN(C)CC1	CCNE1 WT-3xFLAG:CDK2 complex	co-IP TMT proteomics, item: PRC1	HEK-293T	20 µM, 6 h	relative to: DMSO	log2 fold change	-0.14

Repeated from above:
Structure (SMILES)	tested on	assay	system	conditions	how to read	measurement	result
CNS(=O)(=O)Nc1nccc(Cc2c(C)c3ccc(Oc4ncccc4F)cc3oc2=O)c1F	SW48	cell viability	–	7 days	–	IC50	2.19 nM
O=C(N/N=C/c1ccc2c(ccc[n+]2Cc2ccccc2)c1)c1cc(C(=O)N/N=C/c2ccc3c(ccc[n+]3Cc3ccccc3)c2)ncn1	telomeric G4 DNA hybrid-2	FRET melting	–	1 µM, DNA 0.2 µM, with: duplex DNA competitor 10 µM	–	ΔTm	10 ± 5.4 °C
